# Results collected from several papers.
# Lines come from different studies, so protocols differ. ± marks the error that the study gave.
SMILES,species,sample,route,dose,time,tissue uptake
O=C([O-])CN1CCN(CC(=O)[O-])CCN(CC(=O)NCCc2ccc3c(c2)C2C=CCC2C(c2cc4c(cc2Br)OCO4)N3)CCN(CC(=O)[O-])CC1.[111In+3] (centres unmarked),"mouse, Hec50 endometrial tumour",lungs,,,0.5 h post injection,4.98 ± 0.84 %ID/g
CN(C)c1ccc(-c2nc3ccc(OCCCCCN4CCN5CCN(CC4)CC(=O)[O][Al]([18F])[O]C(=O)C5)cc3s2)cc1,ICR mouse,bone,intravenous,,10 min,1.97 ± 0.79 %ID/g
CCCC[C@H](NC(=O)CNC(=O)CNC(=O)CN1CCN(CC(=O)O)CCN(CC(=O)O)CC1)C(=O)N[C@H]1CC(=O)NCCCC[C@@H](C(N)=O)NC(=O)[C@H](Cc2c[nH]c3ccccc23)NC(=O)[C@H](CCCNC(=N)N)NC(=O)[C@@H](Cc2ccccc2)NC(=O)[C@H](Cc2c[nH]cn2)NC1=O [copper-64 labelled],"female C57 mouse, B16/F1 melanoma",bone,intravenous,0.037 MBq,2 h,0.27 ± 0.05 %ID/g
CC(C)[C@H](NC(=O)[C@@H]1CCCN1C(=O)[C@H](CCCNC(=N)N)NC(=O)[C@H](CS)NC(=O)[C@H](Cc1c[nH]c2ccccc12)NC(=O)[C@H](CCCNC(=N)N)NC(=O)[C@@H](Cc1ccccc1)NC(=O)[C@H](Cc1c[nH]cn1)NC(=O)[C@H](CCC(=O)O)NC(=O)[C@H](CS)NC(=O)[C@H](CS)NC(=O)CNC(=O)[C@@H]1CC(=O)N[C@@H](CCCNC(=N)N)C(=O)NCC(=O)N[C@@H](CC(=O)O)C(=O)N[C@H](Cc2ccc(O)cc2)C(=O)N1)C(N)=O [technetium-99m labelled],"C57 mouse, female, B16/F1 melanoma",skin,intravenous,0.037 MBq,2 h,1.56 ± 0.43 %ID/g
CCCC[C@H](NC(=O)CNC(=O)CNC(=O)CN1CCN(CC(=O)O)CCN(CC(=O)O)CCN(CC(=O)O)CC1)C(=O)N[C@H]1CC(=O)NCCCC[C@@H](C(N)=O)NC(=O)[C@H](Cc2c[nH]c3ccccc23)NC(=O)[C@H](CCCNC(=N)N)NC(=O)[C@@H](Cc2ccccc2)NC(=O)[C@H](Cc2c[nH]cn2)NC1=O [lead-203 labelled],C57 mouse,spleen,intravenous,0.056 MBq,4 h,0.26 ± 0.2 %ID/g
CCCC[C@@H]1NC(=O)[C@@H](NC(=O)[C@H](CCC(=O)O)NC(=O)CNC(=O)CN2CCN(CC(=O)O)CCN(CC(=O)O)CCN(CC(=O)O)CC2)CCCCNC(=O)C[C@@H](C(N)=O)NC(=O)[C@H](C(C)C)NC(=O)[C@@H]2CCCN2C(=O)[C@H](CCCNC(=N)N)NC(=O)CNC(=O)[C@H](Cc2c[nH]c3ccccc23)NC(=O)[C@H](CCCNC(=N)N)NC(=O)[C@@H](Cc2ccccc2)NC(=O)[C@H](Cc2c[nH]cn2)NC(=O)[C@H](CCC(=O)O)NC1=O [gallium-67 labelled],normal C57 mice,pancreas,intravenous,0.037 MBq/mouse,2 h,0.15 ± 0.07 %ID/g
O=C(O)C1CN(Cc2ccc(-c3noc(-c4ccc(OCC[18F])c(C(F)(F)F)c4)n3)cc2)C1,male Sprague-Dawley rat,lung,intravenous,,120 min,0.272 ± 0.053 %ID/g
CCCC[C@H](NC(=O)CNC(=O)CNC(=O)CN1CCN(CC(=O)O)CCN(CC(=O)O)CC1)C(=O)N[C@H]1CC(=O)NCCCC[C@@H](C(N)=O)NC(=O)[C@H](Cc2c[nH]c3ccccc23)NC(=O)[C@H](CCCNC(=N)N)NC(=O)[C@@H](Cc2ccccc2)NC(=O)[C@H](Cc2c[nH]cn2)NC1=O [gallium-67 labelled],"female C57 mice, B16/F1 melanoma",brain,intravenous,0.037 MBq,2 h,0.11 ± 0.07 %ID/g

# Some of these lines once more:
SMILES,species,sample,route,dose,time,tissue uptake
CN(C)c1ccc(-c2nc3ccc(OCCCCCN4CCN5CCN(CC4)CC(=O)[O][Al]([18F])[O]C(=O)C5)cc3s2)cc1,ICR mouse,bone,intravenous,,10 min,1.97 ± 0.79 %ID/g
